Measurements collected from several papers.
Parts stem from different laboratories: compare values within a part only.
Chain of UniProt P23458 (whole entry, looked up): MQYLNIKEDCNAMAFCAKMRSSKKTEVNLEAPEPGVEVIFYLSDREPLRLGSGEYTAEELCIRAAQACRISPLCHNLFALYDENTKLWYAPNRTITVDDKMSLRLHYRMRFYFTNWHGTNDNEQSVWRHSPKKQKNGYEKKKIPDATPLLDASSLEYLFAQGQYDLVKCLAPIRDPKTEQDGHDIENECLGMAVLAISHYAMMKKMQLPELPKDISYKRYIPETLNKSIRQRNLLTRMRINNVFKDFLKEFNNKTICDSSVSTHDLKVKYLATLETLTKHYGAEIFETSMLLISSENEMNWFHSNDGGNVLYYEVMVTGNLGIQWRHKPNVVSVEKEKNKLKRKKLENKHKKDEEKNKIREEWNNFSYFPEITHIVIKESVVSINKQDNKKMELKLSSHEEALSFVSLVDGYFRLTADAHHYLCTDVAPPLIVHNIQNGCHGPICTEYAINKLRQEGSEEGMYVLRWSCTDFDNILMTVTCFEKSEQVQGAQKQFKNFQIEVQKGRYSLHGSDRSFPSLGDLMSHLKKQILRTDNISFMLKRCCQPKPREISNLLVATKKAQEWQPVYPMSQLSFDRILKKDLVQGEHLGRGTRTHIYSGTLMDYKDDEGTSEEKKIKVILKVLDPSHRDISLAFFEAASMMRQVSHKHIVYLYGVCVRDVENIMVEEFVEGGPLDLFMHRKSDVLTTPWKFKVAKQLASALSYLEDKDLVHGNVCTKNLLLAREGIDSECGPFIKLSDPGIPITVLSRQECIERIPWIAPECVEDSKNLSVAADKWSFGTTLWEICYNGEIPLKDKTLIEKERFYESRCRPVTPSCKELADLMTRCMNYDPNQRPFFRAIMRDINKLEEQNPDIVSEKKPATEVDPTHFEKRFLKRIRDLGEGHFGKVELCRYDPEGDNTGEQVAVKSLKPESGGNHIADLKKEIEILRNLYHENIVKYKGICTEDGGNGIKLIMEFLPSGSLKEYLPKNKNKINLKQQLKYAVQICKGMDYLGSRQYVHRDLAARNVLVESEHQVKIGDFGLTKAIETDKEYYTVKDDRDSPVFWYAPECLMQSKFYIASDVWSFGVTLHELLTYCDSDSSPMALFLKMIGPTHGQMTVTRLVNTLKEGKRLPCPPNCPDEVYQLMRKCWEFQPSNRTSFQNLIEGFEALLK
Chain of UniProt Q96SB4 (whole entry, looked up): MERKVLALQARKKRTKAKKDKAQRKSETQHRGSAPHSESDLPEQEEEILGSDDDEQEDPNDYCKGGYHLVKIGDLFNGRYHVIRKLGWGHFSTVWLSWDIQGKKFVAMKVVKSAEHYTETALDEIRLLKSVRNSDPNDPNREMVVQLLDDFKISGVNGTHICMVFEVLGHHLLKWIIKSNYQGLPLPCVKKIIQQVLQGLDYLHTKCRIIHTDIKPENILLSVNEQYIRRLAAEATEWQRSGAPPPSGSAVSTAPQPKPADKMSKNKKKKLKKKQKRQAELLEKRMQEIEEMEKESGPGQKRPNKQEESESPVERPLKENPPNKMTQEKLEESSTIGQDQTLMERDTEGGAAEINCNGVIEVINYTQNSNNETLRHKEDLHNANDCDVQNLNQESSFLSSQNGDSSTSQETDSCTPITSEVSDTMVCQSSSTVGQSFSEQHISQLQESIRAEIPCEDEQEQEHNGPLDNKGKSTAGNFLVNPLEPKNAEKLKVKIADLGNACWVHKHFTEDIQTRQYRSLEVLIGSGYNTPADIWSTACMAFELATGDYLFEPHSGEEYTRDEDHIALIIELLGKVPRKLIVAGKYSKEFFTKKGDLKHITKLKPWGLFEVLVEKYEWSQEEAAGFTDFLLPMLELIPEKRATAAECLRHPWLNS
Chain of UniProt Q12866 (whole entry, looked up): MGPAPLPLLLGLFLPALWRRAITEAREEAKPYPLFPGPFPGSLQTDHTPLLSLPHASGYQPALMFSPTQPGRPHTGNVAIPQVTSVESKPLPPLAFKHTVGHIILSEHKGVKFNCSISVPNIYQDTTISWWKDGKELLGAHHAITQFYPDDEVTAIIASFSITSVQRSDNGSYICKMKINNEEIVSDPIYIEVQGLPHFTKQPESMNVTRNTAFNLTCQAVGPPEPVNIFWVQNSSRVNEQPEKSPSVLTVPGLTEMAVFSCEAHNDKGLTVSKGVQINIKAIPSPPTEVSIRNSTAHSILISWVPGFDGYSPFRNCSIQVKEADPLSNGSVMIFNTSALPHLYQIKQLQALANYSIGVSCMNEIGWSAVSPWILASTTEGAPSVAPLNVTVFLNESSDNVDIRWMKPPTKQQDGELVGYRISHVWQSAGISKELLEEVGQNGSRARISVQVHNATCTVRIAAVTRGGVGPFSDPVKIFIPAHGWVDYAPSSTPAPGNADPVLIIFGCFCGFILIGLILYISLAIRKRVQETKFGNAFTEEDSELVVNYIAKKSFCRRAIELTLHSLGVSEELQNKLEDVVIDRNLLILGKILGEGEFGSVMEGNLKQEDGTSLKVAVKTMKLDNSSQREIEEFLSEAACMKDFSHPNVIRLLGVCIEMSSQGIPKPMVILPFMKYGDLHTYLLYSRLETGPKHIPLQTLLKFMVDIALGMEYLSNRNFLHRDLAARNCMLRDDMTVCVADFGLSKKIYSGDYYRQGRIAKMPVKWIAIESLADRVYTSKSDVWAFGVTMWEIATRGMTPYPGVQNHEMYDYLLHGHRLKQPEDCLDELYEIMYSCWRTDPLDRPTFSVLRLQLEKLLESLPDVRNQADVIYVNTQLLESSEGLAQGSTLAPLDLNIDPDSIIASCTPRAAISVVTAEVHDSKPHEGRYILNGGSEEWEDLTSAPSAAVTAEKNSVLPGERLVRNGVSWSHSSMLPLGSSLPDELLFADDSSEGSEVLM
Chain of UniProt P80192 (whole entry, looked up): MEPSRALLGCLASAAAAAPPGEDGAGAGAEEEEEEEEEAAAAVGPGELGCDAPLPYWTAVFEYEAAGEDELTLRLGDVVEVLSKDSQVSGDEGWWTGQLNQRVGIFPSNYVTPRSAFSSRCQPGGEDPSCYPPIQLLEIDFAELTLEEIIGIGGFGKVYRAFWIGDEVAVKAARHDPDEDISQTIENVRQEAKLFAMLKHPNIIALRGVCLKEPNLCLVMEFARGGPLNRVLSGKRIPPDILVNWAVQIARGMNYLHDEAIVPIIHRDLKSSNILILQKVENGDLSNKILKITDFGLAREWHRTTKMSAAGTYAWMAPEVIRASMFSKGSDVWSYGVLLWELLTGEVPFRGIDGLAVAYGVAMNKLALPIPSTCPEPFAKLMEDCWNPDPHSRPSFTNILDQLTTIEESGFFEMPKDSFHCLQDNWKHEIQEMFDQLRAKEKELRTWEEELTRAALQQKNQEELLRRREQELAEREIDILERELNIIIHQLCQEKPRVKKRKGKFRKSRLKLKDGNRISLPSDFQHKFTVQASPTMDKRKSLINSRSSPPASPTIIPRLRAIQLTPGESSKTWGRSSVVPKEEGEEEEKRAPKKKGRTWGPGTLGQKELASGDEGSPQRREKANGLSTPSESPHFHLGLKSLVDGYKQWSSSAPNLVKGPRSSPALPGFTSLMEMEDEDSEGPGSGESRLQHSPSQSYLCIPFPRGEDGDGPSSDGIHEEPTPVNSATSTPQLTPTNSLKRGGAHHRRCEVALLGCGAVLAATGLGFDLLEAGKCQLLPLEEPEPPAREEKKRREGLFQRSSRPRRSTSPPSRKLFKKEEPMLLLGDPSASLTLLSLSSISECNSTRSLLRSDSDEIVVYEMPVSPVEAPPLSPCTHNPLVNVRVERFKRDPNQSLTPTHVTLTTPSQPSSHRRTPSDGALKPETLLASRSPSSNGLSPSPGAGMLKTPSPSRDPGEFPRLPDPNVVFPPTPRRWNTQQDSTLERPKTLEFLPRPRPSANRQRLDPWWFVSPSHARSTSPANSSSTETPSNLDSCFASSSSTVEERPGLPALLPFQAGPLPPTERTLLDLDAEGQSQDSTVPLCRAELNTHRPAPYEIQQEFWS
Chain of UniProt Q08881 (whole entry, looked up): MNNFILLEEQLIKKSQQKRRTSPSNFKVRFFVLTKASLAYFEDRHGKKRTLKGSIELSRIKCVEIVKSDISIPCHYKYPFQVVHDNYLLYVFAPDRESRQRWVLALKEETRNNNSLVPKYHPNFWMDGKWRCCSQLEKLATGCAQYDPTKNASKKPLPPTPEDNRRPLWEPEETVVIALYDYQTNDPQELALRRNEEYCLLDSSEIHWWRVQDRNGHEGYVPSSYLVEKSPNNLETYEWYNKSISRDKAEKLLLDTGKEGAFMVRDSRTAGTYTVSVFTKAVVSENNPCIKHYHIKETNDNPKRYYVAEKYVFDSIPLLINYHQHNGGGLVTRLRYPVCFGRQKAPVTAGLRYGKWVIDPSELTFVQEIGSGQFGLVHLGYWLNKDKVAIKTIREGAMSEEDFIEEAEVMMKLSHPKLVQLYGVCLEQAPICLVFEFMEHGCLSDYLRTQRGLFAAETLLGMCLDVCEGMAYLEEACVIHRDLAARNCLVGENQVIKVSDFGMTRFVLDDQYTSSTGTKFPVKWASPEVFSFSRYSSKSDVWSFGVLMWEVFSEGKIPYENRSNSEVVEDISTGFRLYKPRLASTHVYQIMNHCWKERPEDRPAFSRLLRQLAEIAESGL
Chain of UniProt P78368 (whole entry, looked up): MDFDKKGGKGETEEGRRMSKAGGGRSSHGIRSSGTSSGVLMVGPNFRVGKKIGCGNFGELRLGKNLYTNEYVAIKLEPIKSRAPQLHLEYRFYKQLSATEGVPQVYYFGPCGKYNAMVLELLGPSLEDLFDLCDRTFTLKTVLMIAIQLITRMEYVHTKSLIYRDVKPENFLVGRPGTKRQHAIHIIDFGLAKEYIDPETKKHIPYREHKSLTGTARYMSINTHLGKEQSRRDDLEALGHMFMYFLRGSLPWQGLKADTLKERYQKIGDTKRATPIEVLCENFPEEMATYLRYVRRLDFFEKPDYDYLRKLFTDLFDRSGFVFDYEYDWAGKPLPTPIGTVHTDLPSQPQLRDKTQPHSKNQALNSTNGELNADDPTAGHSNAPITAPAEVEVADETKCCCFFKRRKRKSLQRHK

Study 1
Host: human
Sample: microsomes or S9
Tested at: 2 µM
Time: 0.5 h
Compound | remaining compound [%]
CCc1ccc(N2C=NS(=O)(=O)c3cccnc32)cc1 | 48.6
O=S(=O)(Cc1ccccc1)CC(O)Cn1cccn1 (stereo not shown) | 95.2
COc1cc(=O)n(C)cc1C(=O)Nc1nc(-c2ccccn2)cs1 | 27.6
CCc1cnc(N2CCC(Oc3cc(=O)n(-c4ccc(OC)nc4)c(=O)n3C)CC2)nc1 | > 100
c1ccc2c(c1)CCN(c1nc(N3CCOCC3)c3nn[nH]c3n1)C2 | 81
COc1ccccc1Nc1cnnc2c(Cl)cccc12 | 9.01
O=C(c1cccs1)N1c2nc(C3CCCCC3)nn2C2(CCCCC2)[C@@H]2CCCC[C@@H]21 | 0.236
CON(C)c1nc(OCCNC(=O)OCc2ccc(Cl)cc2C)nc(N(C)C)n1 | 0.504

Study 2
Compound: O=C(Nc1cnc(Oc2ccc(F)cc2)nc1)N1CCc2ncccc2[C@@H]1c1ccc(F)cc1
Effect on: cell-free assay
Technique: competition with immobilised ligand
Tested at: 1 µM
target | remaining binding [%]
MAPK9 (Homo sapiens, UniProt P45984) | 85
Tyrosine-protein kinase JAK1, JH1 (JAK1, Homo sapiens, UniProt P23458) | 86
MAP3K10 (Homo sapiens, UniProt Q02779) | 77
MAST1 (Homo sapiens, UniProt Q9Y2H9) | 96
MAP3K9 (Homo sapiens, UniProt P80192) | 92
COQ8B (Homo sapiens, UniProt Q96D53) | 100
OXSR1 (Homo sapiens, UniProt O95747) | 93
PAK3 (Homo sapiens, UniProt O75914) | 100
MAPK15 (Homo sapiens, UniProt Q8TD08) | 93
ITK (Homo sapiens, UniProt Q08881) | 90
TGFBR2 (Homo sapiens, UniProt P37173) | 100
ULK3 (Homo sapiens, UniProt Q6PHR2) | 95
CASK (Homo sapiens, UniProt O14936) | 94
MAP2K3 (Homo sapiens, UniProt P46734) | 76
AKT3 (Homo sapiens, UniProt Q9Y243) | 78
MTOR (Homo sapiens, UniProt P42345) | 100
Tyrosine-protein kinase ABL1, non-phosphorylated (ABL1, Homo sapiens, UniProt P00519, Q252H) | 91
Tyrosine-protein kinase ABL1, phosphorylated (ABL1, Homo sapiens, UniProt P00519, T315I) | 77
NTRK1 (Homo sapiens, UniProt P04629) | 100
PHKG2 (Homo sapiens, UniProt P15735) | 96

Study 3
SMILES: Cc1nc(Nc2ncc(C(=O)Nc3c(C)cccc3Cl)s2)cc(N2CCN(CCO)CC2)n1
Mode: inhibitor
target | tested at | inhibition [%]
AKT1 (Homo sapiens, UniProt P31749) | 1 µM | < 50
CDK15 (Homo sapiens, UniProt Q96Q40) | 10 µM | < 50
DDR1 (Homo sapiens, UniProt Q08345) | 10 µM | 100
CSNK1G2 (Homo sapiens, UniProt P78368) | 1 µM | < 50
MAP3K11 (Homo sapiens, UniProt Q16584) | 10 µM | < 50
MERTK (Homo sapiens, UniProt Q12866) | 10 µM | < 50
TESK1 (Homo sapiens, UniProt Q15569) | 10 µM | 100

Study 4
SMILES: N#CC(=C(N)Sc1ccc(N)cc1)c1ccccc1C(F)(F)F
Effect on: enzyme activity
Mode: inhibitor
Tested at: 0.5 µM
Baseline: control
target | remaining activity
CAMK1 (Homo sapiens, UniProt Q14012) | 91.6%
TEC (Homo sapiens, UniProt P42680) | 109%
SGK2 (Homo sapiens, UniProt Q9HBY8) | 99%
EPHA2 (Homo sapiens, UniProt P29317) | 104%
SIK2 (Homo sapiens, UniProt Q9H0K1) | 101%
CSNK1E (Homo sapiens, UniProt P49674) | 95.8%
PAK6 (Homo sapiens, UniProt Q9NQU5) | 107%
JAK1 (Homo sapiens, UniProt P23458) | 106%
PAK1 (Homo sapiens, UniProt Q13153) | 94.3%
TYRO3 (Homo sapiens, UniProt Q06418) | 110%
PRKCQ (Homo sapiens, UniProt Q04759) | 104%
SRPK1 (Homo sapiens, UniProt Q96SB4) | 96.5%
MAP3K20 (Homo sapiens, UniProt Q9NYL2) | 105%
IGF1R (Homo sapiens, UniProt P08069) | 97.4%
CAMKK1 (Homo sapiens, UniProt Q8N5S9) | 117%
Cyclin-dependent kinase 2, with cyclin E (CDK2, Homo sapiens, UniProt P24941) | 95.4%
MUSK (Homo sapiens, UniProt O15146) | 91.9%
CSNK1D (Homo sapiens, UniProt P48730) | 106%
EPHA6 (Homo sapiens, UniProt Q9UF33) | 92.3%
PRKCZ (Homo sapiens, UniProt Q05513) | 106%
CLK2 (Homo sapiens, UniProt P49760) | 100%
FLT1 (Homo sapiens, UniProt P17948) | 85.4%
RPS6KA3 (Homo sapiens, UniProt P51812) | 100%
